{"data": "Results collected from several papers", "note": "Lines come from different studies, so protocols differ. Numbers after ± are the reported error."}
{"SMILES": "C[C@H]1CN(C(=O)CC#N)[C@]12CCN(c1ncnc3[nH]ccc13)C2", "test system": "human", "setting": "oral, 12 mg single dose", "quantity": "participants with treatment-related TEAEs", "value": "0%"}
{"SMILES": "CCn1c(C(=O)N(C2CC2)C2CC2)cc2c3c(ncn3C)c(Nc3cc(C)n(C)n3)nc21", "test system": "cancer patients", "setting": "oral, 200 mg twice daily, day 15, 336.0 h", "quantity": "plasma concentration", "value": "4740 ng/mL"}
{"SMILES": "O=C(O)c1cc(O)c2c(c1)C(=O)c1cccc(O)c1C2=O", "target or system": "HK-2 co-cultured with HepaRG", "test": "MTT", "setting": "66.67 µM, 24 h", "how to read": "baseline: untreated control", "quantity": "viability", "value": "101 ± 10.3%"}
{"SMILES": "COc1cccc(OC)c1-c1cc(C(=O)NC2(C(=O)O)C3CC4CC(C3)CC2C4)nn1-c1ccc(C(=O)N(C)CCCN(C)CCCN(C)C(=O)CN2CCN(CC(=O)[O-])CCN(CC(=O)[O-])CCN(CC(=O)[O-])CC2)cc1C(C)C.[177Lu+3] (stereo not drawn)", "test system": "mouse, HT-29 xenograft", "setting": "168 h post injection, biodistribution", "how to read": "baseline: tumour over kidney uptake", "quantity": "tumour-to-kidney ratio", "value": 13.7}
{"SMILES": "CCc1cc(C(=O)NC)c2nccc(N3CCc4c(cc(Cn5ccnc5)cc4-c4cn(C)nc4C(F)(F)F)C3=O)c2c1", "test system": "Sprague Dawley rat", "setting": "oral, 50 mg/kg once daily, 7 days", "how to read": "baseline: vehicle", "quantity": "brain weight change", "value": "-1.9%"}
{"SMILES": "O=C(Nc1nc2cccc(-c3ccc(CN4CCS(=O)(=O)CC4)cc3)n2n1)C1CC1", "test": "item: chills", "test system": "human rheumatoid arthritis patients", "setting": "oral, 150 mg once daily, 4 weeks, regardless of relatedness", "quantity": "treatment-emergent adverse events", "value": "0%"}
{"SMILES": "CC(C)(C)c1ccc(O)c(CN(Cc2cc(C(C)(C)C)ccc2O)C2CCC(NC(N)=O)CC2)c1 (stereo not drawn)", "test system": "mouse plasma", "setting": "5 ng/mL, time not given, freeze-thaw, 3 cycles, -20 °C", "quantity": "recovery", "value": "99.7 ± 2.59%"}
{"SMILES": "N#C[C@@]1(c2ccc3c(N)ncnn23)O[C@H](CO)[C@@H](O)[C@H]1O", "test": "plasma protein binding", "test system": "dog plasma", "setting": "1 µM", "quantity": "bound fraction", "value": 0.119}
{"SMILES": "COc1cc(N2CCC3(CCN(C)CC3)CC2)ccc1Nc1ncc(Cl)c(Nc2ccccc2P(C)(C)=O)n1", "test": "population PK model", "test system": "human", "setting": "oral, final model", "quantity": "Ka", "value": "1.06 h⁻¹"}
{"SMILES": "NC(=O)N1c2ccccc2C=Cc2ccccc21", "test": "item: blood and lymphatic disorders (SOC)", "test system": "human male", "setting": "oral, dose not given, CTCAE on-treatment AEs", "quantity": "adverse events incidence", "value": "7%"}
{"SMILES": "CC(=O)N[C@@H](CC(N)=O)C(=O)N[C@@H](CC(N)=O)C(=O)N[C@@H](CC(C)C)C(=O)N[C@H]1CSSC[C@@H](C(=O)N[C@H](C(N)=O)[C@@H](C)O)NC(=O)[C@H](CCCNC(=N)N)NC(=O)[C@H](Cc2c[nH]cn2)NC(=O)[C@H](C)NC(=O)CNC(=O)[C@H](Cc2c[nH]c3ccccc23)NC(=O)[C@H](CC(=O)O)NC(=O)[C@H](CCC(N)=O)NC(=O)[C@H](Cc2c[nH]c3ccccc23)NC(=O)[C@H](C(C)C)NC1=O", "test": "isocratic RP-HPLC, C18", "test system": "32% acetonitrile, phosphate pH 7.4, 1% TFA", "setting": "25 °C", "quantity": "retention factor", "value": "0.396 ± 0.015"}
{"SMILES": "O=c1cc(CO)occ1[O-].[Cl-].[W+4].c1cc[cH-]c1.c1cc[cH-]c1", "test": "cyclic voltammetry", "how to read": "baseline: Ag/AgCl", "quantity": "oxidation potential", "value": "581 mV"}
{"SMILES": "CCC(C)n1ncn(-c2ccc(N3CCN(c4ccc(OCC5COC(Cn6cncn6)(c6ccc(Cl)cc6Cl)O5)cc4)CC3)cc2)c1=O (stereo not drawn)", "test system": "human, plasma", "setting": "oral, dose not given, day 17 predose, mean", "quantity": "trough plasma concentration", "value": "183 ng/mL"}
{"SMILES": "O=C1CC[C@H](N2Cc3cc(N4CCN(CC5CCN(c6ccc([C@@H]7c8ccc(O)cc8CC[C@@H]7c7ccccc7)cc6)CC5)CC4)ccc3C2=O)C(=O)N1", "test system": "human", "setting": "oral, 200 mg, added: dabigatran etexilate 75 mg", "quantity": "participants with TEAEs", "value": "25%"}
{"SMILES": "CN1C(=O)[C@@H](NC(=O)c2nnc(Cc3ccccc3)[nH]2)COc2cccnc21", "test system": "healthy human, fasted, plasma", "setting": "oral, 100 mg single dose, geometric mean", "quantity": "terminal half-life", "value": "6 h"}
{"SMILES": "Cc1cc(O)c2c(c1)C(=O)c1cc(O)cc(O)c1C2=O", "target or system": "HK-2 co-cultured with HepaRG", "test": "MTT", "setting": "66.67 µM, 24 h", "how to read": "baseline: untreated control", "quantity": "viability", "value": "56.4 ± 3.23%"}
{"SMILES": "CCCCCCCCCCCCCCCC(=O)N[C@@H](CCC(=O)NCCCC[C@@H]1NC(=O)[C@H]([C@@H](C)CC)NC(=O)[C@@H](NC(=O)[C@@H]2CCCN2C(=O)[C@H](Cc2ccccc2)NC(=O)[C@H](Cc2c[nH]cn2)NC(=O)[C@@H](NC(=O)[C@H](CC(=O)O)NC(=O)CC(C)C)[C@@H](C)O)CSSC[C@@H](C(=O)N[C@@H](CCCCN)C(N)=O)NC(=O)CNC(=O)[C@H](CCCCN)NC(=O)[C@H](CO)NC(=O)[C@H](CCCNC(=N)N)NC(=O)[C@@H]2CCCN2C(=O)[C@H](CCC(=O)O)NC(=O)[C@H](Cc2ccccc2)NC1=O)C(=O)O", "test system": "healthy volunteers, plasma", "setting": "subcutaneous, 30 mg single, lyophilised formulation", "quantity": "Vz/F", "value": "47.3 ± 18.4 L"}
{"SMILES": "C=CCN1CC(=O)N2[C@@H](Cc3ccc(O)cc3F)C(=O)N(Cc3cccc(N4CC(N5CCN(CC)CC5)C4)n3)C[C@@H]2N1C(=O)NCc1ccccc1", "test system": "advanced solid tumour patients", "setting": "oral, 20 mg twice daily, grade ≥3, dose-escalation", "quantity": "treatment-related diarrhoea", "value": "0%"}
{"note": "Excerpt of the above:"}
{"SMILES": "C=CCN1CC(=O)N2[C@@H](Cc3ccc(O)cc3F)C(=O)N(Cc3cccc(N4CC(N5CCN(CC)CC5)C4)n3)C[C@@H]2N1C(=O)NCc1ccccc1", "test system": "advanced solid tumour patients", "setting": "oral, 20 mg twice daily, grade ≥3, dose-escalation", "quantity": "treatment-related diarrhoea", "value": "0%"}
